Assay results gathered from unrelated publications.
Each numbered part is a random draw from the data of one study; scales do not carry over between parts. Values joined by “and” are separate records of one study, mostly repeats; a detail may differ.
Chain of UniProt P15170 (whole entry, looked up): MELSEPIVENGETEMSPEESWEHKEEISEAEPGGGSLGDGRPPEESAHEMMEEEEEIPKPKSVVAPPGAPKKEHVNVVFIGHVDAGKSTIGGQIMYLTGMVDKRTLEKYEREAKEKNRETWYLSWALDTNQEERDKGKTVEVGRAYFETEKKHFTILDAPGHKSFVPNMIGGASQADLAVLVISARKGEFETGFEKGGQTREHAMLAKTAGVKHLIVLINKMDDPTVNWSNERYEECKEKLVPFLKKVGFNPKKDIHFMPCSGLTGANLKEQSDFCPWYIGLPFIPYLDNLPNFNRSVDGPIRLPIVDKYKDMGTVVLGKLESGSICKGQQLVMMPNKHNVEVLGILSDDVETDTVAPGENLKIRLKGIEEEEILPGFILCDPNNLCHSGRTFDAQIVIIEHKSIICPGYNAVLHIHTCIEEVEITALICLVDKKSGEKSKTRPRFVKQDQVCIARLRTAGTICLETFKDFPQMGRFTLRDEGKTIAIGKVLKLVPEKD
Chain of UniProt Q9UKT9 (whole entry, looked up): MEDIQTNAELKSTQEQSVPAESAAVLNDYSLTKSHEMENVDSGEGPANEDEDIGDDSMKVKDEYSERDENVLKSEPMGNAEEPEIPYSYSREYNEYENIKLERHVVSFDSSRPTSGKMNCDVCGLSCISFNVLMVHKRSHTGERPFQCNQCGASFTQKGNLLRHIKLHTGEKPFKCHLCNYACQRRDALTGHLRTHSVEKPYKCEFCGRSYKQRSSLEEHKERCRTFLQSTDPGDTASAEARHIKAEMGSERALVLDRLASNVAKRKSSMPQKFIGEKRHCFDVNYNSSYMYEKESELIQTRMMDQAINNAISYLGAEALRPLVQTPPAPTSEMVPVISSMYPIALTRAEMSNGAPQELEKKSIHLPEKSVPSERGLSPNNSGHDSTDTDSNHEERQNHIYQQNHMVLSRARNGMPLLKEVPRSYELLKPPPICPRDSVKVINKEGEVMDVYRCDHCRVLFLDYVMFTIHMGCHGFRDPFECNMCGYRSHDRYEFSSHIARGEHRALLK
Chain of UniProt Q16513 (whole entry, looked up): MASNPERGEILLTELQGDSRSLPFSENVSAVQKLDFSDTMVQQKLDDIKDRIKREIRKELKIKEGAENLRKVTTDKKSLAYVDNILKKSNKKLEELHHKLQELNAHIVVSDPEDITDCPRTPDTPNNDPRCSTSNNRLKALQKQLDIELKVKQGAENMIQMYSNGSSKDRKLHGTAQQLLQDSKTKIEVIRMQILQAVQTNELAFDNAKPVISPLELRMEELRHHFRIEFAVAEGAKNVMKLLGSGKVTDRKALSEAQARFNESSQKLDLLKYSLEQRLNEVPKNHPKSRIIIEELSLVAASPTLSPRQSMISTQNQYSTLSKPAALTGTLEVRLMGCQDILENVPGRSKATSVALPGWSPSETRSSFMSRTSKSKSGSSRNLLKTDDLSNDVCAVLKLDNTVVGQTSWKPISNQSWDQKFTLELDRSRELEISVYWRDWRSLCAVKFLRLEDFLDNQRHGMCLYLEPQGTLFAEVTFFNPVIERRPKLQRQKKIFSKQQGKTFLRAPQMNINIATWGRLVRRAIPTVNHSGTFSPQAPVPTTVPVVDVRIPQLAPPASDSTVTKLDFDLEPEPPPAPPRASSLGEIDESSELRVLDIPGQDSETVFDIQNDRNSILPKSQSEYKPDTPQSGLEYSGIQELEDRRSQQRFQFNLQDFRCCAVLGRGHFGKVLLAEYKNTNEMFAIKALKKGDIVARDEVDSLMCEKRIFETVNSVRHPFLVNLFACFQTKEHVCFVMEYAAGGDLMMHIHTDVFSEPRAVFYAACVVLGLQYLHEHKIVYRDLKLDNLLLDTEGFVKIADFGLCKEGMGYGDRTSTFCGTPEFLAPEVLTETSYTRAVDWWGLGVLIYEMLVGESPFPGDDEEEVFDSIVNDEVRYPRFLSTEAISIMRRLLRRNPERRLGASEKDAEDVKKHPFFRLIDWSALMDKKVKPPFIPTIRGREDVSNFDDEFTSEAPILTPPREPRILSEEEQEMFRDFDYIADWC
Chain of UniProt P07949 (whole entry, looked up): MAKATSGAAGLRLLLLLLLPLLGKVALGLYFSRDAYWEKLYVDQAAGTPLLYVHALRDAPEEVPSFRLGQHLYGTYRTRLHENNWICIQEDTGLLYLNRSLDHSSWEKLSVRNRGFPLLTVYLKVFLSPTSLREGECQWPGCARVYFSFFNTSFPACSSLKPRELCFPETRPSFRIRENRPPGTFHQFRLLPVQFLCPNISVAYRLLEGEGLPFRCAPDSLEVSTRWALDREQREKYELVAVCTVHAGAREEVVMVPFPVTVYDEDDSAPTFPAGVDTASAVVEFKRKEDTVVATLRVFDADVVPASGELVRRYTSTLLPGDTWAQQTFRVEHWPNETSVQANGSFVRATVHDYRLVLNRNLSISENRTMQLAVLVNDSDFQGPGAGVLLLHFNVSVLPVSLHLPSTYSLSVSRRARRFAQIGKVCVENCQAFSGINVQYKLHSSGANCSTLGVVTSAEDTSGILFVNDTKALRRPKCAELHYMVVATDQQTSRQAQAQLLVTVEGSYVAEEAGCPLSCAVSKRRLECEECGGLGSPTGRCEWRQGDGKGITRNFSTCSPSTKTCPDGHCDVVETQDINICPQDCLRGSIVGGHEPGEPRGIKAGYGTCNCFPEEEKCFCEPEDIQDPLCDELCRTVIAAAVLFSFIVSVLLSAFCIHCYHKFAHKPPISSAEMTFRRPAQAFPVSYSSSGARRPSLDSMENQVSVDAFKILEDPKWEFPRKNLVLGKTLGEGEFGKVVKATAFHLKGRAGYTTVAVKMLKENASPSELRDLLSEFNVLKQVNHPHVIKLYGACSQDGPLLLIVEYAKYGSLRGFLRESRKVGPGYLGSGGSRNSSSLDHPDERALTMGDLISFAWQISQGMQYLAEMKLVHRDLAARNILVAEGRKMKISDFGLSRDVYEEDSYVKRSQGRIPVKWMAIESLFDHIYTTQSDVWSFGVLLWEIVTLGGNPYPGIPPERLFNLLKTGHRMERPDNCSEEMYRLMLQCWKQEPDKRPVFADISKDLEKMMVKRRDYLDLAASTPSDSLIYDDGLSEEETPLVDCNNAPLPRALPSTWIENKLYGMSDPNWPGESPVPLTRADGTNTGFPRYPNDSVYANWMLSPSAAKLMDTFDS

Block 1
Target: Diamine acetyltransferase 1 (Homo sapiens, UniProt P21673)
Mode: inhibitor
Tested at: 10 µM
Relative to: control
Target sequence (P21673 1-171): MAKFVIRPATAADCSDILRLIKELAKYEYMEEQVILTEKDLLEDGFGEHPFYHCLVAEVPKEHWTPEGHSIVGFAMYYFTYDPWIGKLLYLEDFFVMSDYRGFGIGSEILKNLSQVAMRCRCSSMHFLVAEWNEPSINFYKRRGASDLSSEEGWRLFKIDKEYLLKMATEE
| SMILES | remaining activity [%] |
| --- | --- |
| COc1ccccc1C=CC=O | 91.5 |
| CC(C)=CCC[C@@H](C)[C@H]1CC[C@@]2(C)C3=C(CC[C@]12C)[C@@]1(C)CC[C@H](O)C(C)(C)[C@@H]1CC3 | 97.3 |
| CC(=O)/C=C/C1=C(C)CCCC1(C)C | 105 |
| O=C(O)c1ccccc1C(=O)O | 94.7 |
| CCCCC1OC(=O)C2=CCCCC21 (stereo not drawn) | 82.6 |
| CC(C)(C)c1ccc(O)c(C(C)(C)C)c1 | 79 |
| CC1=C(C=O)C(C)(C)CC=C1 | 91 |
| CCCCCC/C=C\CCCCCCCC(=O)OC | 101 |
| COc1ccc(-c2coc3cc(O)ccc3c2=O)cc1 | 88.5 |
| C[C@@H]1C(=O)O[C@H]2C[C@@]34[C@H]5C[C@@H](C(C)(C)C)[C@]36[C@@H](OC(=O)[C@@H]6O)O[C@@]4(C(=O)O5)[C@]21O | 70.6 |
| O=c1ccc2c(O)cc(O)cc2o1 | 108 |
| C=C(C)[C@@H]1CC=C(C)C(=O)C1 | 88.8 |
| Oc1cc(O)c2c(c1)O[C@@]1(c3ccc(O)c(O)c3)Oc3cc(O)c4c(c3[C@@H]2[C@H]1O)O[C@H](c1ccc(O)c(O)c1)[C@H](O)C4 | 99.4 |
| Cc1cc2nc3[nH]c(=O)[nH]c(=O)c3nc2cc1C | 102 |

Block 2
Compound: O=C1CCC(N2Cc3cc(C4CCN(Cc5ccccc5)CC4)ccc3C2=O)C(=O)N1 (stereo not drawn)
Mode: degrader
Method: HiBiT
Cell line: HEK293
IKZF4: Zinc finger protein Eos (IKZF4, Homo sapiens, UniProt Q9H2S9)
Chain of UniProt Q9H2S9 (whole entry, looked up): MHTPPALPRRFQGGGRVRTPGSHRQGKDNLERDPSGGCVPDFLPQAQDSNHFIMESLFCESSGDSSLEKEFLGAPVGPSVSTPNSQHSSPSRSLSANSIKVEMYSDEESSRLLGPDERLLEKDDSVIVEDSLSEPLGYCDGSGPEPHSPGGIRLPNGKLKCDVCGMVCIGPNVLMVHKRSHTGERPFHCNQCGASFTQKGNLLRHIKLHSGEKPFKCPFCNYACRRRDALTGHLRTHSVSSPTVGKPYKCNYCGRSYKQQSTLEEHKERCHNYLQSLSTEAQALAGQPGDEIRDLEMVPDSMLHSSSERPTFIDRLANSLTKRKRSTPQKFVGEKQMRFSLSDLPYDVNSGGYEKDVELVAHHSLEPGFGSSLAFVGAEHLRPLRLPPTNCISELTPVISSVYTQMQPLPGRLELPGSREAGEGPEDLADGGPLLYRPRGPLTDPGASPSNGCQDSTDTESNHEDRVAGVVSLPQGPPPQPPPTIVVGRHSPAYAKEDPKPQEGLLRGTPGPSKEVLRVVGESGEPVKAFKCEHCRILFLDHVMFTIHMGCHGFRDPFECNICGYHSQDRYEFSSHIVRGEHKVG
SALL4: Sal-like protein 4 (SALL4, Homo sapiens, UniProt Q9UJQ4)
Chain of UniProt Q9UJQ4 (whole entry, looked up): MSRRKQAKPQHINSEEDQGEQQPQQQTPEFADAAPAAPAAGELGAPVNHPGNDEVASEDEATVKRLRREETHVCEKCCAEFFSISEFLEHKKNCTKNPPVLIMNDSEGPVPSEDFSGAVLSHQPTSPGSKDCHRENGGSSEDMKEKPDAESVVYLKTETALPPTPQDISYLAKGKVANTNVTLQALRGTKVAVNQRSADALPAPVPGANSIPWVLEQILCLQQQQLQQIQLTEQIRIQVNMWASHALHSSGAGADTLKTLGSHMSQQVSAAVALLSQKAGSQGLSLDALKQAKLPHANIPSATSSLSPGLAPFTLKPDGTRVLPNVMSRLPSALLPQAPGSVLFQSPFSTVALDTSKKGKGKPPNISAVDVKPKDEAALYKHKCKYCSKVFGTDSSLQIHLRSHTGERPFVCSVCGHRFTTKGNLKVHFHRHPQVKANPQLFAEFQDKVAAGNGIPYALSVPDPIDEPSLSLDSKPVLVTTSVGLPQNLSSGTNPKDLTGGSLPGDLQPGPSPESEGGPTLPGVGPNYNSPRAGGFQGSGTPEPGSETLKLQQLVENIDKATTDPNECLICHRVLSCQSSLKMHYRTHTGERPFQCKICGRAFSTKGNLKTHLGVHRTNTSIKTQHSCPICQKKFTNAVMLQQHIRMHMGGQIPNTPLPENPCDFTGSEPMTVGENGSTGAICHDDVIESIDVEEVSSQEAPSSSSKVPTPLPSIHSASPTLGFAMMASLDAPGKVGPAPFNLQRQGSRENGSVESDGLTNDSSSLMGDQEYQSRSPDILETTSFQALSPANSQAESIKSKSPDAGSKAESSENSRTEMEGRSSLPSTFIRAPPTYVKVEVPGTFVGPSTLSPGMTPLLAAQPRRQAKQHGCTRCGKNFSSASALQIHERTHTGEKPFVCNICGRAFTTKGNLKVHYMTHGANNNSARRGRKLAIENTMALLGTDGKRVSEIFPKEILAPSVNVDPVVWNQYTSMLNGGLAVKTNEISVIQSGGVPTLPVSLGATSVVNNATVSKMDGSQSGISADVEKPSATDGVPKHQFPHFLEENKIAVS
| target | tested at | time | remaining protein |
| --- | --- | --- | --- |
| IKZF4 | 0.01235 µM | 6 h | 113% |
| Zinc finger protein Aiolos (Homo sapiens, UniProt Q9UKT9) | 0.0001694 µM | – | 98.9% and 98.6% |
| GSPT1 (Homo sapiens, UniProt P15170) | 10 µM | – | 116% and 109% |
| SALL4 | 0.04115 µM | 6 h | 54.2% |
| SALL4 | 10 µM | – | 44.9% and 46.2% |
| IKZF4 | 0.0001524 µM | 3 h | 115% |
| SALL4 | 1.111 µM | – | 47.9% and 49.8% |
| SALL4 | 0.001524 µM | – | 70% and 71.5% |
| IKZF4 | 1 µM | 6 h | 114% |
| SALL4 | 0.1235 µM | – | 48.4% and 56.5% |

Block 3
Compound: O=C1NC(=O)C(c2c[nH]c3ccccc23)=C1c1c[nH]c2ccccc12
Effect on: enzyme activity
Mode: inhibitor
Tested at: 0.5 µM
Relative to: control
| target | remaining activity |
| --- | --- |
| CDK7 (Homo sapiens, UniProt P50613) | 94.4% |
| ROS1 (Homo sapiens, UniProt P08922) | 87% |
| HIPK3 (Homo sapiens, UniProt Q9H422) | 96% |
| CAMK1D (Homo sapiens, UniProt Q8IU85) | 106% |
| CSNK2A2 (Homo sapiens, UniProt P19784) | 92% |
| PTK2B (Homo sapiens, UniProt Q14289) | 95.6% |
| GRK5 (Homo sapiens, UniProt P34947) | 98.1% |
| ROCK2 (Homo sapiens, UniProt O75116) | 89.2% |
| DMPK (Homo sapiens, UniProt Q09013) | 97.3% |
| RET (Homo sapiens, UniProt P07949) | 80.6% |
| MAP3K8 (Homo sapiens, UniProt P41279) | 90.8% |
| PRKD1 (Homo sapiens, UniProt Q15139) | 97.6% |
| NEK9 (Homo sapiens, UniProt Q8TD19) | 97.3% |
| MAP3K2 (Homo sapiens, UniProt Q9Y2U5) | 107% |
| Aurora kinase A (AURKA, Homo sapiens, UniProt O14965) | 108% |
| SLK (Homo sapiens, UniProt Q9H2G2) | 45.4% |
| MAPK10 (Homo sapiens, UniProt P53779) | 110% |
| NTRK3 (Homo sapiens, UniProt Q16288) | 72.5% |
| PKN2 (Homo sapiens, UniProt Q16513) | 103% |
| BRSK1 (Homo sapiens, UniProt Q8TDC3) | 84.4% |
| DYRK4 (Homo sapiens, UniProt Q9NR20) | 94.3% |
| Cyclin-dependent kinase 2, with cyclin A (CDK2, Homo sapiens, UniProt P24941) | 81.9% |
| CAMK1G (Homo sapiens, UniProt Q96NX5) | 99.5% |

Single results of other studies
| SMILES | cell line | method | tested at | time | measurement | value |
| --- | --- | --- | --- | --- | --- | --- |
| Cn1cncc1[C@@](O)(COc1ccc(C#N)cc1-c1ccc(OC(F)(F)F)cc1)c1ccc(C#N)cc1 | HEK293T | high-content imaging | 10 µM | 24 h | pyknotic nuclei | 31.1% |

A few entries again (block 1):
| SMILES | remaining activity [%] |
| --- | --- |
| CC(=O)/C=C/C1=C(C)CCCC1(C)C | 105 |
| O=C(O)c1ccccc1C(=O)O | 94.7 |
| CCCCC1OC(=O)C2=CCCCC21 (stereo not drawn) | 82.6 |
| CC(C)(C)c1ccc(O)c(C(C)(C)C)c1 | 79 |
